# Assay results gathered from unrelated publications.
# Numbers after ± are the reported error.
Compound,target,assay,test system,setting,IC50
N/C(=N\O)c1ccc2c(c1)Oc1ccccc1N2Cc1cccc(C(=O)NO)c1,HeLa nuclear HDACs,"enzyme activity, inhibitor",,added: Boc-Lys(Ac)-AMC,15 ± 1.2 µM
NC[C@@H]1O[C@H](O[C@H]2[C@@H](O)[C@H](O[C@@H]3[C@@H](O)[C@H](N)C[C@H](N)[C@H]3O[C@H]3O[C@@H]4COCO[C@H]4[C@H](O)[C@H]3N)O[C@@H]2CO)[C@H](N)[C@@H](O)[C@@H]1O,rabbit reticulocyte ribosome,"luciferase translation, cell-free translation",rabbit reticulocyte lysate,,130 ± 41.4 µg/mL
CN[C@H]1[C@@H](O)[C@@H](NC)C[C@H]2O[C@@H]3O[C@H](C)C[C@@H](NC(=O)Cc4ccccn4)[C@]3(O)O[C@H]12,Mycolicibacterium smegmatis 70S ribosome,"translation, luciferase reporter",,,9.5 µg/mL
O=C1c2ccc3c4ccc5c6c(ccc(c7ccc(c2c37)C(=O)N1CCN1CCCCC1)c64)C(=O)N(CCN1CCCCC1)C5=O,human telomerase,modified TRAP,,cell-free,9.5 ± 0.8 µM
Cc1cccc(C)c1NC(=O)[C@@H]1CCN(Cc2ccccc2)C1,"Nav1.4, Pelophylax lessonae","sodium current, use-dependent blocker, vaseline gap voltage clamp",skeletal muscle fibres,10 Hz pulse trains,1.8 ± 0.1 µM
NC[C@@H]1O[C@H](O[C@H]2[C@@H](O)[C@H](O[C@@H]3[C@@H](O)[C@H](N)C[C@H](N)[C@H]3O[C@H]3O[C@H](CO)[C@@H](OCCCO)[C@H](O)[C@H]3N)O[C@@H]2CO)[C@H](N)[C@@H](O)[C@@H]1O,rabbit reticulocyte ribosome,"luciferase translation, cell-free translation",rabbit reticulocyte lysate,,374 ± 117 µg/mL
O=c1cc(-c2ccc(O)c(O)c2)oc2cc(O[C@@H]3O[C@H](CO)[C@@H](O)[C@H](O)[C@H]3O)cc(O)c12,protease,"enzyme activity, inhibitor",,"10 min, 25 °C, added: casein 1%",23.8 ± 0.1 µg/mL
N=C(N)SCc1ccccc1CSC(=N)N,human IDO1,kynurenine production,A-431,"24 h, added: IFN-γ, L-tryptophan 178 µM",0.74 µM
Cc1cccc(C)c1NC(=O)[C@@H]1CCCN1Cc1ccccc1,"Nav1.4, Pelophylax lessonae","sodium current, use-dependent blocker, vaseline gap voltage clamp",skeletal muscle fibres,10 Hz pulse trains,31.3 ± 5.7 µM
COCOC[C@H]1O[C@H](O[C@H]2[C@H](O[C@@H]3O[C@H](CO)[C@@H](O[C@H]4O[C@@H](CN)[C@@H](O)[C@H](O)[C@H]4N)[C@H]3O)[C@@H](O)[C@H](N)C[C@@H]2N)[C@H](N)[C@@H](O)[C@@H]1O,rabbit reticulocyte ribosome,"luciferase translation, cell-free translation",rabbit reticulocyte lysate,,91.2 ± 18.7 µg/mL
CN[C@@H]1[C@H](O)[C@H](NC)[C@H]2O[C@]3(O)[C@H](O[C@@H]2[C@H]1O)O[C@H](C)C[C@@]3(O)CNCc1ccc(F)cc1,Mycolicibacterium smegmatis 70S ribosome,"translation, luciferase reporter",,,0.74 µg/mL
COCO[C@H]1[C@H](O)[C@@H](N)[C@@H](O[C@H]2[C@H](O[C@@H]3O[C@H](CO)[C@@H](O[C@H]4O[C@@H](CN)[C@@H](O)[C@H](O)[C@H]4N)[C@H]3O)[C@@H](O)[C@H](N)C[C@@H]2N)O[C@@H]1CO,rabbit reticulocyte ribosome,"luciferase translation, cell-free translation",rabbit reticulocyte lysate,,43.1 ± 1.88 µg/mL
CCN(CC)CCN1C(=O)c2ccc3c4cccc5cccc(c6ccc(c2c36)C1=O)c54,human telomerase,modified TRAP,,cell-free,7.6 ± 0.1 µM
O=C(NO)c1ccc(CN2c3ccccc3Oc3ccc(C(=O)Nc4ccc(C(=O)c5ccccc5)cc4)cc32)cc1,HeLa nuclear HDACs,"enzyme activity, inhibitor",,added: Boc-Lys(Ac)-AMC,0.54 µM
O=C1c2ccc3c4cccc5cccc(c6ccc(c2c36)C(=O)N1CCN1CCCCC1)c54,human telomerase,modified TRAP,,cell-free,8.6 ± 0.6 µM
CO[C@H]1[C@H](O)[C@@H](N)[C@@H](O[C@H]2[C@H](O[C@@H]3O[C@H](CO)[C@@H](O[C@H]4O[C@@H](CN)[C@@H](O)[C@H](O)[C@H]4N)[C@H]3O)[C@@H](O)[C@H](N)C[C@@H]2N)O[C@@H]1CO,rabbit reticulocyte ribosome,"luciferase translation, cell-free translation",rabbit reticulocyte lysate,,40.9 ± 8.39 µg/mL

# For quick reference, copied from above:
Compound,target,assay,test system,setting,IC50
Cc1cccc(C)c1NC(=O)[C@@H]1CCN(Cc2ccccc2)C1,"Nav1.4, Pelophylax lessonae","sodium current, use-dependent blocker, vaseline gap voltage clamp",skeletal muscle fibres,10 Hz pulse trains,1.8 ± 0.1 µM
NC[C@@H]1O[C@H](O[C@H]2[C@@H](O)[C@H](O[C@@H]3[C@@H](O)[C@H](N)C[C@H](N)[C@H]3O[C@H]3O[C@H](CO)[C@@H](OCCCO)[C@H](O)[C@H]3N)O[C@@H]2CO)[C@H](N)[C@@H](O)[C@@H]1O,rabbit reticulocyte ribosome,"luciferase translation, cell-free translation",rabbit reticulocyte lysate,,374 ± 117 µg/mL
